Assay results of several laboratories.
Each numbered part is a random draw from the data of one study; scales do not carry over between parts.

Block 1 — technique: protein-binding microarray; molecule type: double-stranded DNA, one strand shown; medium: in vitro; concentration: 2540 nM top; notes: 60-bp whole probe; together with: salmon DNA 0.4 mg/ml; baseline: random background probes; direction: higher = stronger binding; constant ends, left off below: GCCTAGCAC … GTCTTGATTCGCTTGACGCTGCTG
Target: Interferon regulatory factor 3, full length, phosphomimetic (IRF3, Homo sapiens, UniProt Q14653, residues 1-427, S386D/S396D/S398D/S402D/T404D/S405D)
Chain of UniProt Q14653 (whole entry, unmodified, looked up): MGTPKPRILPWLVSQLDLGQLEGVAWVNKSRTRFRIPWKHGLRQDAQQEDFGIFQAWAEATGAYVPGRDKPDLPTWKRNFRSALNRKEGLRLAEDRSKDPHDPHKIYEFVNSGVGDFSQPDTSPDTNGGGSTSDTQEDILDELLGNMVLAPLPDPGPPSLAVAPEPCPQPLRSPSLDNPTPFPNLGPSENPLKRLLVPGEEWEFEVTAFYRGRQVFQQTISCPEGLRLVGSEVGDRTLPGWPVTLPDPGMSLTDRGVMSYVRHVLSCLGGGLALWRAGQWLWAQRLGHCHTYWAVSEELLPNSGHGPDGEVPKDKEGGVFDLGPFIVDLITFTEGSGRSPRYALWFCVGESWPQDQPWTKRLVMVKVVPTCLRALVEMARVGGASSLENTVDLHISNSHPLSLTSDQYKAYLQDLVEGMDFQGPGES
| Strand | fitted relative affinity |
| --- | --- |
| GACGGACTCGACACTGGGGACGTGCTA | -0.705 z-score |
| GACGGTTTCTTTTCCCTGACGTGCTAG | 4.8 z-score |
| TTAGAACTGAGCTTCGATTAGTGCTAG | -0.524 z-score |
| TTAGGACTGGGTTTCGGTTAGTGCTAG | 2.85 z-score |
| TTAGATATCAGTATCGATTCGTGCTAG | 2.57 z-score |
| AGAGATGTGGGACTCACCTAGTGCTAG | -0.551 z-score |

Block 2 — technique: protein binding microarray; molecule type: double-stranded DNA, one strand shown; medium: in vitro; concentration: not given; baseline: not given; direction: higher = stronger binding
Target: Histone acetyltransferase KAT6A, winged helix 1, GST fusion (KAT6A, Homo sapiens, UniProt Q92794, residues 1-85)
Notes: 8-mer, flanks averaged, mean of 2 arrays, mostly near background
Construct (chain): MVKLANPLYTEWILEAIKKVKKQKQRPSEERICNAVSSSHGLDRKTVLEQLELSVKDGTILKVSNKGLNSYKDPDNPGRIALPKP
| Strand | E-score |
| --- | --- |
| AGATTAGA | -0.194 |
| ATAAGAGG | -0.0373 |
| CGATTGGC | -0.0176 |
| GCCGTCAA | 0.288 |
| ACAAACGC | 0.24 |
| CTTCGATC | -0.0562 |
| CATACATG | -0.0859 |
| GAACTTCC | -0.112 |

Block 3 — technique: universal PBM; molecule type: double-stranded DNA, one strand shown; medium: in vitro; concentration: not given; direction: higher = stronger binding
Target: Sal-like protein 4, full length isoform B (SALL4, Homo sapiens, UniProt Q9UJQ4-2, residues 1-616)
Notes: 8-mer, flanks averaged, mean of replicates
Construct (chain): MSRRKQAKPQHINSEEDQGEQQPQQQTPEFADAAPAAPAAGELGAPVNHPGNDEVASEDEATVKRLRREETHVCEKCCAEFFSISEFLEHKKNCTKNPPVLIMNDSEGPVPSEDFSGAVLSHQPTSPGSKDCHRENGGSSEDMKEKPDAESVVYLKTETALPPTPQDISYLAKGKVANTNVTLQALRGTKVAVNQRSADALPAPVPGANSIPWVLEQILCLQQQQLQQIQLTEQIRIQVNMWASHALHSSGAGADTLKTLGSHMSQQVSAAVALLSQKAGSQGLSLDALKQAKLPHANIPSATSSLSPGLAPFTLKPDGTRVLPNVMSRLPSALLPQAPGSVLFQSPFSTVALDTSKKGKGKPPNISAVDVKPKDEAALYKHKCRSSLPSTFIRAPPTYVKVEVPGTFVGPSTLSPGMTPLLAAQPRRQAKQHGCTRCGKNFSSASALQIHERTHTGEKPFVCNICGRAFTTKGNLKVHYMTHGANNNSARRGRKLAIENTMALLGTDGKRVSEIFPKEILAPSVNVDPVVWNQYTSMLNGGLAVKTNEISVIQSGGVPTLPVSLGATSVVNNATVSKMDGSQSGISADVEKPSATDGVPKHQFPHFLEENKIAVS
| Strand | E-score |
| --- | --- |
| CCGCCGCA | -0.271 |
| ATCTGCCG | -0.182 |
| ACGTCCCT | -0.0915 |
| GATTTCGC | 0.0409 |
| GTCCTAAA | -0.02 |

Single results of other studies
| Substance | target | assay | test system | conditions | scale | measurement | result |
| --- | --- | --- | --- | --- | --- | --- | --- |
| PhoQ, residues 284 288 289 292 302 303 TLASMF | PhoP, residues 12 14 15 18 19 LFHKL (Escherichia coli, UniProt P23836) | Sort-seq, refers to: YFP reporter | E. coli | PhoQ-PhoP variant library, together with: 10 µM Mg2+ | baseline: high Mg2+ state, higher = stronger signaling | fold induction | 1.22 |

Some of these lines once more (block 2):
| Strand | E-score |
| --- | --- |
| GAACTTCC | -0.112 |
